Measured values of several laboratories.
Protocols differ between the studies behind these lines. “And” joins repeats or separate records; there may be more than shown. Numbers after ± are the reported error.
Organism: Plasmodium falciparum

COCCCNc1cc(C(=O)NC2CC3CCC(C2)N3c2ccc(C(=O)NCc3ccccc3)cn2)ccc1C(N)=O (stereo not shown) — sensitising concentration (3D7; asexual blood stage, together with: bortezomib): 250 to 1000 nM
CNC(=O)[C@@H]1Cc2c([nH]c3ccccc23)[C@@H](c2ccc(F)cc2Cl)N1 — IC50 (parasite growth; Dd2 (MRA-150)): 506 ± 45 nM
CCOc1ccc2cc(-c3nn(CC4CCNCC4)c4ncnc(N)c34)ccc2n1 — EC50 (gametocyte exflagellation, inhibitor; wild type): < 40 nM
O=C(c1ccccc1)N(O)CCCP(=O)(O)O — IC50 (parasite growth; 3D7): > 356000 nM
NCCNC(=O)c1cc2c([nH]c3ccccc32)c(-c2ccc(C(F)(F)F)cc2)n1 — EC50 (SYBR Green I; Dd2; 72 h, asexual blood stage): 95 nM and ~100 nM
CCOc1ccc2cc(-c3nn(CC4CCNCC4)c4ncnc(N)c34)ccc2c1 — EC50 (gametocyte exflagellation, inhibitor; wild type): < 40 nM
O=C(NCCNCCO)c1cc2c([nH]c3ccccc32)c(-c2cc(Cl)c(Cl)c(Cl)c2)n1 — EC50 (SYBR Green I; Dd2; 72 h, asexual blood stage): 74 ± 18 nM
CC(=O)N1CCC[C@@H]1C(=O)N[C@@H](C)C(=O)N[C@@H](Cc1ccccc1)B(O)O — selectivity ratio (HepG2 cells, 3D7; 72 h; relative to: HepG2 over 3D7): 49 fold
CNCCNC(=O)c1cc2c([nH]c3ccccc32)c(-c2cc(Cl)c(Cl)c(Cl)c2)n1 — EC50 (SYBR Green I; Dd2; 72 h, asexual blood stage): 54 ± 8 nM
CS(=O)(=O)Cc1onc(-c2cccc(Cl)c2)c1-c1ccnc(N[C@@H]2CCN(Cc3nccs3)C2)n1 — EC50 (parasite growth; 3D7 A10; 72 h, asexual blood stage): 9490 ± 2130 nM

Excerpt of the above:
COCCCNc1cc(C(=O)NC2CC3CCC(C2)N3c2ccc(C(=O)NCc3ccccc3)cn2)ccc1C(N)=O (stereo not shown) — sensitising concentration (3D7; asexual blood stage, together with: bortezomib): 250 to 1000 nM
